Assay results from different studies.
“And” joins repeats or separate records; there may be more than shown. ± marks the error that the study gave.

C[C@H]1C[C@H]2CSC(N)=N[C@@]2(c2nc(NC(=O)c3ccc(OC(F)F)cn3)cs2)CO1 — percent change from baseline (measured: Aβ1-40; healthy adults, plasma; 160 mg single dose, 24 h post-dose; baseline: placebo): -84%
O=C(O)CNC(=O)Cc1ccccc1 — sarcomere length (ventricular cardiomyocytes, C57BL/6 mouse; dose not given, 0.444 s): 1.72 µm
COc1nnc2ccc(N3CCC(c4ccc(OCCN5CCN(C)C(=O)[C@H]5C)cc4)CC3)nn12 — time HEXIM1 above threshold (patients; 20 mg twice daily): 12.1 h
CN(C(=O)n1cnc(-c2ccc[n+]([O-])c2)c1)C1CCCCC1 — AUC(0-tau) (measured: PEA; human, plasma; 2.5 mg once daily, day 10): 139 ng·h/mL
OC[C@H]1O[C@@H](c2ccc(F)c(Cc3cc4ccccc4s3)c2)[C@H](O)[C@@H](O)[C@@H]1O — time glucose at most 70 mg/dL (continuous glucose monitoring; Japanese type 1 diabetes patients; 50 mg/day, day 14; baseline: baseline): -1.04 ± 9.99 % change
O=C1N(Cc2ccccc2Cl)c2ccccc2C12NN=C(c1ccccc1)S2 (stereo not drawn) — T/C (PANC-1 xenograft, mouse; intravenous, 947 mg/kg twice daily, subcutaneous xenograft; baseline: vehicle): 71%
CC[C@@H]1[C@H](F)C(=O)N[C@@H]1COc1nccc2cc(C(N)=O)c(OC)cc12 — inhibition (ATP-site probe binding, ActivX profiling, measured: MARK1, MARK2; THP-1 cell lysate; 0.01 mM, Lys1 site): -5.4%
[Cl-].[Cl-].[Pt+2].[Ru+2].c1ccc(-c2nc3ccccc3nc2-c2ccccn2)nc1.c1cnc2c(c1)ccc1cccnc12.c1cnc2c(c1)ccc1cccnc12 — negative activation entropy (chloride substitution, UV-vis kinetics; aqueous buffer; concentration not given, pH 7.2, second substitution step, with: thiourea): 150 ± 8 J/(mol·K)
C[C@@H](O)CCOC(=O)C[C@@H](C)O — plasma NEFA (human; oral drink, dose not given, 90 min post dose, median, all participants): 0.2 mM
CC(C)C[C@@H](NC(=O)[C@H](C)NC(=O)CNC(=O)[C@@H](NC=O)C(C)C)C(=O)N[C@@H](C)C(=O)N[C@@H](C(=O)N[C@H](C(=O)N[C@@H](C(=O)N[C@@H](Cc1c[nH]c2ccccc12)C(=O)N[C@H](CC(C)C)C(=O)N[C@@H](Cc1ccc2[nH]ccc2c1)C(=O)N[C@H](CC(C)C)C(=O)N[C@@H](Cc1c[nH]c2ccccc12)C(=O)N[C@@H](C(=O)N[C@@H](Cc1c[nH]c2ccccc12)C(=O)NCCO)C(C)C)[C@H](C)O)C(C)C)C(C)C — EC50 (H+/Na+ transport, pyranine pH-gradient; EYPC/EYPG LUVs 19:1): 4.94 ± 1.84 nM
CSCCNc1nc(SCCC(F)(F)F)nc2c1ncn2[C@@H]1O[C@H](COP(=O)(O)OP(=O)(O)C(Cl)(Cl)P(=O)(O)O)[C@@H](O)[C@H]1O — platelet aggregation AUC (ADP-induced platelet aggregation, Multiplate aggregometry; human patients, whole blood; dose not given, 30 min): 27.8 ± 16 U
Cc1ccc(C(=O)OCc2ccc([C@@H](CN)C(=O)Nc3ccc4cnccc4c3)cc2)c(C)c1 — IOP (tonometry; NZW rabbit, magnetic bead-induced ocular hypertension; ocular, 0.02%, 6 h): 35 mmHg
C[C@H]1O[C@@H](O[C@H]2CC[C@@]3(C)[C@@H](CC[C@]4(C)[C@@H]3C=C[C@]35OC[C@@]6(CCC(C)(C)C[C@H]63)[C@@H](O)C[C@]54C)[C@]2(C)CO)[C@H](O)[C@@H](O[C@@H]2O[C@H](CO)[C@@H](O)[C@H](O)[C@H]2O)[C@H]1O — ALT activity (chronic-plus-binge ethanol mice, plasma; oral, 15 mg/kg/day for 7 d, 168 h): 24.2 U/L and 22.3 U/L and 25.1 U/L and 18.5 U/L and 16.4 U/L
O=P(O)(O)C(Cl)(Cl)P(=O)(O)O — VCAM-1 level (endothelial activation, immunostaining; Mus musculus, subarachnoid haemorrhage model, cortical capillary endothelium; dose not given): 2.51 MFI
C[C@H](Oc1ccc(Br)cc1-c1ccon1)C(=O)O — difference from placebo (relative refractory period; human, tibialis anterior muscle; 400 mg, SAD): -0.056 ms
Cc1n[nH]c2ccc(-c3cc(OC[C@@H](N)Cc4ccccc4)cnc3-c3ccoc3)cc12 — log2 fold change (kinase binding, competitor, MIB/MS competition, measured: HST7; Candida albicans cell lysate; 100 nM; baseline: DMSO): 0.106
O[C@H]1CCCN[C@@H]1CCCn1cnc2c(Cl)c(Cl)ccc21 — AUC(0-tau) (ELISA, measured: Pro-C3; healthy human volunteers, serum; intraduodenal, 25 mg twice daily, day 14, multiple ascending dose): 119 ng·h/mL
C[C@@H]1CCC[C@H](n2cnc(-c3cc(Cl)ccc3-n3cc(Cl)nn3)cc2=O)c2cc(ccn2)-c2c(cnn2C(F)F)NC1=O — concentration for aPTT prolongation (rat plasma; IC1.5× aPTT, Actin FS reagent): > 40 µM

Some of these lines once more:
O=C1N(Cc2ccccc2Cl)c2ccccc2C12NN=C(c1ccccc1)S2 (stereo not drawn) — T/C (PANC-1 xenograft, mouse; intravenous, 947 mg/kg twice daily, subcutaneous xenograft; baseline: vehicle): 71%
